Assay results gathered from unrelated publications.
Protocols differ between the studies behind these lines.
Observed: cell growth or viability

Structure (SMILES)	cell line	test	setting	viability
CC(=NNC(=O)COc1ccc2c(C)c(Cc3ccccc3)c(=O)oc2c1C)c1ccc(Br)cc1	HCT-116	MTT	25 µg/mL	43.5%
Cc1ccc(C(CS(=O)(=O)c2ccccc2)=NNc2nc(-c3ccc(OCCCCOc4ccc(-c5csc(NN=C(CS(=O)(=O)c6ccccc6)c6ccc(C)cc6)n5)cc4)cc3)cs2)cc1	SK-MEL-23	MTT	25 µM, 48 h	48%
C=CCOc1ccc2c(C)c(CC)c(=O)oc2c1C	MDA-MB-231	MTT	125 µg/mL	66%
CC(=NNC(=O)c1ccccc1Cl)c1ccc(Nc2nnc(-c3ccc(Cl)cc3)c3ccccc23)cc1	HepG2	MTT	10 µM, 24 h	3.2%
Cc1ccc(C(CS(=O)(=O)c2ccccc2)=NNc2nc(C)c(N=Nc3cccc(C)c3)s2)cc1	SK-MEL-23	MTT	6.3 µM, 48 h	50%
COc1ccc(NC(=O)c2c(Nc3ccccc3)sc(C(=O)NN=Cc3ccccc3)c2NC(C)=O)cc1	HCT-116	SRB	100 µM, 48 h	58.4%
CC(=O)Nc1ccc(Oc2nnc(-c3ccc(Cl)cc3)c3ccccc23)cc1	HepG2	MTT	5 µM, 24 h	6.46%
COc1ccc(NC(=O)c2c(Nc3ccccc3)sc(C#N)c2NC(=O)CNc2ccc(C)cc2)cc1	HCT-116	SRB	1 µM, 48 h	75.4%
Cc1c(Cc2ccccc2)c(=O)oc2c(C)c(OCC(=O)NN=Cc3ccc(Cl)cc3)ccc12	MDA-MB-231	MTT	31.25 µg/mL	52.1%
COc1ccc(NC(=O)c2c(Nc3ccccc3)sc(C#N)c2NC(=O)CNc2ccc([N+](=O)[O-])cc2)cc1	HCT-116	SRB	1 µM, 48 h	71.4%
CCc1c(C)c2ccc(OCC(=O)NNC(=S)Nc3ccccc3)c(C)c2oc1=O	MDA-MB-231	MTT	250 µg/mL	6.71%
COc1ccc(NC(=O)c2c(Nc3ccccc3)sc(C(=O)NN=Cc3ccc(OC)c(O)c3)c2NC(C)=O)cc1	HCT-116	SRB	1 nM, 48 h	100%
COc1ccc(NC(=O)NCc2cn(Cc3ccc(C)cc3)nn2)cc1	Huh-7	CCK-8	50 µM, 48 h	97.3%
O=C(C=Cc1ccccc1)Nc1ccc(Oc2nnc(-c3ccc(Cl)cc3)c3ccccc23)cc1	HepG2	MTT	2.5 µM, 24 h	12.1%
CCCOc1ccc2c(C)c(CC)c(=O)oc2c1C	MDA-MB-231	MTT	31.25 µg/mL	99%
COc1ccc(NC(=O)Nc2cccc(-c3cn(Cc4ccc(C)cc4)nn3)c2)cc1	Huh-7	CCK-8	50 µM, 48 h	65.2%
NC(=S)NN=C(CS(=O)(=O)c1ccccc1)c1ccc(F)cc1	SK-MEL-23	MTT	100 µM, 48 h	32.7%
CC(=NNC(=O)c1ccncc1)c1ccc(Nc2nnc(-c3ccc(Cl)cc3)c3ccccc23)cc1	HepG2	MTT	5 µM, 24 h	4.5%
CC(C)(C)c1nc(-c2cccc(NS(=O)(=O)c3c(F)cccc3F)c2F)c(-c2ccnc(N)n2)s1	SK-MEL-23	MTT	25 µM, 48 h	44%
COc1ccc(NC(=O)c2c(Nc3ccccc3)sc(C#N)c2NC(=O)CNc2ccc(O)cc2)cc1	HCT-116	SRB	1 nM, 48 h	101%

Structure (SMILES)	cell line	test	setting	viability
COc1ccc(NC(=O)Nc2cccc(-c3cn(Cc4ccc(Cl)cc4)nn3)c2)cc1	Huh-7	CCK-8	50 µM, 72 h	10.7%
O=C(Nc1ccc(Oc2nnc(-c3ccc(Cl)cc3)c3ccccc23)cc1)c1ccccc1	MCF7	MTT	2.5 µM, 24 h	6.6%
O=C(Nc1ccc(Oc2nc3ccccc3n3cnnc23)cc1)Nc1cccc(Cl)c1	MDA-MB-231	MTT	25 µM, 24 h	52.4%
Cc1ccc(C(CS(=O)(=O)c2ccccc2)=NN=C2N=C(c3ccc(Br)cc3)CS2)cc1	SK-MEL-23	MTT	0.4 µM, 48 h	83.6%
CC(=O)Nc1cccc(-n2c(=O)n(C3CC3)c(=O)c3c(Nc4ccc(I)cc4F)n(C)c(=O)c(C)c32)c1	SW-620	resazurin	0.1 µM, 72 h	24%
COc1ccc(C=NNC(=O)c2sc(Nc3ccccc3)c(C(=O)Nc3ccc(OC)cc3)c2NC(C)=O)cc1	HCT-116	SRB	1 nM, 48 h	99.4%
Cc1c(Cc2ccccc2)c(=O)oc2c(C)c(OCC(=O)NN=Cc3ccccc3)ccc12	MDA-MB-231	MTT	250 µg/mL	6.21%
COc1ccc(NC(=O)Nc2cccc(-c3cn(Cc4ccccc4C)nn3)c2)cc1	Huh-7	CCK-8	50 µM, 48 h	51.5%
COc1ccc(NCC(=O)Nc2c(C#N)sc(Nc3ccccc3)c2C(=O)Nc2ccc(OC)cc2)cc1	HCT-116	SRB	100 µM, 48 h	63.3%
Cc1ccc(C(CS(=O)(=O)c2ccccc2)=NNC2=NC(=O)C(=NNc3ccccc3)S2)cc1	SK-MEL-23	MTT	100 µM, 48 h	21.2%
CC(=NNC(=O)c1ccccc1)c1ccc(Nc2nnc(-c3ccc(Cl)cc3)c3ccccc23)cc1	HepG2	MTT	2.5 µM, 24 h	4.21%
COc1ccc(NC(=O)Nc2ccc(-c3cn(Cc4ccc(Cl)cc4)nn3)cc2)cc1	Huh-7	CCK-8	50 µM, 72 h	90.9%
CC(=NNC(=O)c1ccc(N)cc1)c1ccc(Nc2nnc(-c3ccc(Cl)cc3)c3ccccc23)cc1	HepG2	MTT	10 µM, 24 h	8.37%
Cc1c(Cc2ccccc2)c(=O)oc2c(C)c(OCC(=O)NN=Cc3ccco3)ccc12	MDA-MB-231	MTT	125 µg/mL	4.73%
Cc1ccc(C(CS(=O)(=O)c2ccccc2)=NNC2=NC(=O)C(=NNc3ccc([N+](=O)[O-])cc3)S2)cc1	SK-MEL-23	MTT	1.6 µM, 48 h	67.9%
COc1ccc(NC(=O)Nc2ccc(-c3cn(Cc4cccc(Cl)c4)nn3)cc2)cc1	Huh-7	CCK-8	50 µM, 48 h	88.4%
S=C(Nc1ccccc1)Nc1ccc(Oc2nnc(-c3ccc(Cl)cc3)c3ccccc23)cc1	HepG2	MTT	0.312 µM, 24 h	98.7%
COc1ccc(NC(=O)c2c(Nc3ccccc3)sc(C#N)c2NC(=O)CNc2ccc(Br)cc2)cc1	HCT-116	SRB	1 µM, 48 h	64.5%
COc1ccc(NC(=O)Nc2cccc(-c3cn(Cc4ccc(Br)cc4)nn3)c2)cc1	Huh-7	CCK-8	50 µM, 48 h	52.8%

A few entries again:
Structure (SMILES)	cell line	test	setting	viability
COc1ccc(NCC(=O)Nc2c(C#N)sc(Nc3ccccc3)c2C(=O)Nc2ccc(OC)cc2)cc1	HCT-116	SRB	100 µM, 48 h	63.3%
COc1ccc(NC(=O)c2c(Nc3ccccc3)sc(C(=O)NN=Cc3ccccc3)c2NC(C)=O)cc1	HCT-116	SRB	100 µM, 48 h	58.4%
O=C(Nc1ccc(Oc2nnc(-c3ccc(Cl)cc3)c3ccccc23)cc1)c1ccccc1	MCF7	MTT	2.5 µM, 24 h	6.6%
Cc1c(Cc2ccccc2)c(=O)oc2c(C)c(OCC(=O)NN=Cc3ccco3)ccc12	MDA-MB-231	MTT	125 µg/mL	4.73%
Cc1c(Cc2ccccc2)c(=O)oc2c(C)c(OCC(=O)NN=Cc3ccccc3)ccc12	MDA-MB-231	MTT	250 µg/mL	6.21%
CCc1c(C)c2ccc(OCC(=O)NNC(=S)Nc3ccccc3)c(C)c2oc1=O	MDA-MB-231	MTT	250 µg/mL	6.71%
